Measurements pooled from the literature.
Numbered parts are unrelated; each lists some results of a single study. Substitutions count along the parent as printed.
Sequence of UniProt Q9P286 (whole entry, looked up): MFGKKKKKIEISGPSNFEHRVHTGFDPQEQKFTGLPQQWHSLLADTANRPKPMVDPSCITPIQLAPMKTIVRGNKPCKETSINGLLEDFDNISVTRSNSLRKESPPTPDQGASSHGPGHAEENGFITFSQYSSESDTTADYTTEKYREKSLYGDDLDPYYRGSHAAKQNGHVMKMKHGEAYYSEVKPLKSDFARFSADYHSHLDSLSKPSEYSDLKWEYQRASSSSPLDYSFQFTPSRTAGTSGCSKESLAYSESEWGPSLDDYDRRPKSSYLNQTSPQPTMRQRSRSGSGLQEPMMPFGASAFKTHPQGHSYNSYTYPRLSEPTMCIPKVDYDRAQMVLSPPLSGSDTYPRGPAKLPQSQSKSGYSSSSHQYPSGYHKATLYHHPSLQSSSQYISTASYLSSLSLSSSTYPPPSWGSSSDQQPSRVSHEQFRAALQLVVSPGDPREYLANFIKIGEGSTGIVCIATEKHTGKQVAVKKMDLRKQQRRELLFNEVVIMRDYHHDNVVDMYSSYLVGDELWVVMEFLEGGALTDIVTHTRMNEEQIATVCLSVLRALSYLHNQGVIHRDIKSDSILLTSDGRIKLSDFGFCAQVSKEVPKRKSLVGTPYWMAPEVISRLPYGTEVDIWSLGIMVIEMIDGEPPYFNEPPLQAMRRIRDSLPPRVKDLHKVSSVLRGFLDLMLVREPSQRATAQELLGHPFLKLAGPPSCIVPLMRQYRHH
Sequence of UniProt Q8IVH8 (whole entry, looked up): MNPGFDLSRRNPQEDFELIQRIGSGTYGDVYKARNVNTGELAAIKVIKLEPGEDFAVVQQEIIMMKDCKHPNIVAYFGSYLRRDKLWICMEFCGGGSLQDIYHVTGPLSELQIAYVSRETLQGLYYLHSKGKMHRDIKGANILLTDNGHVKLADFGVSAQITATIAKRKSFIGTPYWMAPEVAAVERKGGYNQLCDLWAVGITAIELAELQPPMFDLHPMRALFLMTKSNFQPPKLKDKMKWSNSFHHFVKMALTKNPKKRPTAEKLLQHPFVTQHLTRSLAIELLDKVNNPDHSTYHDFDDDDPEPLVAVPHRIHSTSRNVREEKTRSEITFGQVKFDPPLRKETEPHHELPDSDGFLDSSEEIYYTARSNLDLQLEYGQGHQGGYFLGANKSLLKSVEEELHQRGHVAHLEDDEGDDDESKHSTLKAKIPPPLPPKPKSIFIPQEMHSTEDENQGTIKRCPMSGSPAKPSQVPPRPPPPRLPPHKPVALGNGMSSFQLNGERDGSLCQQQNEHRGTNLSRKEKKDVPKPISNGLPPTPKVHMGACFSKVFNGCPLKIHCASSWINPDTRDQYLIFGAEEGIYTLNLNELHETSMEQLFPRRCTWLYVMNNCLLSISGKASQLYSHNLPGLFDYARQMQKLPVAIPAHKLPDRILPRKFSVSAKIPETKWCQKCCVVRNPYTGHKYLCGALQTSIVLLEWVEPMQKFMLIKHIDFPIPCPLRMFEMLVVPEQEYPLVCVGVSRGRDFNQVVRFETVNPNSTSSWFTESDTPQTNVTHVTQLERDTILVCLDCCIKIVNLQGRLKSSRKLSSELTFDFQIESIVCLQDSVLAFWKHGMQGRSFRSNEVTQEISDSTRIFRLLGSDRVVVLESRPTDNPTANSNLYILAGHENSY
Sequence of UniProt Q16659 (whole entry, looked up): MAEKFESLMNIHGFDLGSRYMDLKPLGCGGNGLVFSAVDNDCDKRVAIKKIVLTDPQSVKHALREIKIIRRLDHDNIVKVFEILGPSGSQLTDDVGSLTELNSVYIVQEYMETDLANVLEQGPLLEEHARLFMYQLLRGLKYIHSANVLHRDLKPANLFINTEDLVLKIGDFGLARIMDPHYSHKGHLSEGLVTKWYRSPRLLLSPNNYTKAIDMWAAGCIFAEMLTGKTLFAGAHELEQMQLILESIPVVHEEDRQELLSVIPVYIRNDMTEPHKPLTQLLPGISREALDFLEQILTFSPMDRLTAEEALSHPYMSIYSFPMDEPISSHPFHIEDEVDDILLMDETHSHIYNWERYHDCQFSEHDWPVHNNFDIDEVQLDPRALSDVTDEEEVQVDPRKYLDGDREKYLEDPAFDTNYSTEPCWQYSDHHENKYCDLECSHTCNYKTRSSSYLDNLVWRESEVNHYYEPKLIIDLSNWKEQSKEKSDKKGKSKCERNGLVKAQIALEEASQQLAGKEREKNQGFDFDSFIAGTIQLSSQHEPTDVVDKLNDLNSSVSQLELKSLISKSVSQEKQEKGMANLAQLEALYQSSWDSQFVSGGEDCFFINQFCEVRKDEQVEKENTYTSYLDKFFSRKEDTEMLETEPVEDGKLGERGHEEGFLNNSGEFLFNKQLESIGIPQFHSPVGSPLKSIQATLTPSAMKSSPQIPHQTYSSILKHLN
Sequence of UniProt P27361 (whole entry, looked up): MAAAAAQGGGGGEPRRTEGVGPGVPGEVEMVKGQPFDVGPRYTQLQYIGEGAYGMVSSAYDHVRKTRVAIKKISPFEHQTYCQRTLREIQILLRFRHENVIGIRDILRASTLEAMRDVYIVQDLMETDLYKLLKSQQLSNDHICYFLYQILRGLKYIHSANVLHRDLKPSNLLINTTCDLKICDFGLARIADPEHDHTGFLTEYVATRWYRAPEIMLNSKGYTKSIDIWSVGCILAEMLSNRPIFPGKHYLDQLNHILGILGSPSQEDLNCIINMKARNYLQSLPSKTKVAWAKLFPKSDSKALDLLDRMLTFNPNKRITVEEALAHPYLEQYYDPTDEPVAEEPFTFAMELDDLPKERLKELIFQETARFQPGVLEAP
Sequence of UniProt P31152 (whole entry, looked up): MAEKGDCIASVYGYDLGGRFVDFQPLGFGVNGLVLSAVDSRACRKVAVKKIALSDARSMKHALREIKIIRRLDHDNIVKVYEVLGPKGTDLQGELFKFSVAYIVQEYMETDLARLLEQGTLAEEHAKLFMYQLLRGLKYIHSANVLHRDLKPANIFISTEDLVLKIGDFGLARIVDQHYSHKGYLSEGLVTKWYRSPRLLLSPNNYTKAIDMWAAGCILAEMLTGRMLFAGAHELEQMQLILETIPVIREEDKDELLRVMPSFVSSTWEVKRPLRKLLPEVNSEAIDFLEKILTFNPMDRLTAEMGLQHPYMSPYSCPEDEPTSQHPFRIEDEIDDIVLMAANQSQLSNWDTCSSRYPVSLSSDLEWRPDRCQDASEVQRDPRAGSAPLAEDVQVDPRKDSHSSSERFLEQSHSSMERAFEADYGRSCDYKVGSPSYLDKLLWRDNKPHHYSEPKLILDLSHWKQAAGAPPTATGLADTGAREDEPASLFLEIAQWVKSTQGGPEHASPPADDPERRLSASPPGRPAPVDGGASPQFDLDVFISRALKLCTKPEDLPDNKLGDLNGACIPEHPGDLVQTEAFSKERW
Sequence of UniProt P54753 (whole entry, looked up): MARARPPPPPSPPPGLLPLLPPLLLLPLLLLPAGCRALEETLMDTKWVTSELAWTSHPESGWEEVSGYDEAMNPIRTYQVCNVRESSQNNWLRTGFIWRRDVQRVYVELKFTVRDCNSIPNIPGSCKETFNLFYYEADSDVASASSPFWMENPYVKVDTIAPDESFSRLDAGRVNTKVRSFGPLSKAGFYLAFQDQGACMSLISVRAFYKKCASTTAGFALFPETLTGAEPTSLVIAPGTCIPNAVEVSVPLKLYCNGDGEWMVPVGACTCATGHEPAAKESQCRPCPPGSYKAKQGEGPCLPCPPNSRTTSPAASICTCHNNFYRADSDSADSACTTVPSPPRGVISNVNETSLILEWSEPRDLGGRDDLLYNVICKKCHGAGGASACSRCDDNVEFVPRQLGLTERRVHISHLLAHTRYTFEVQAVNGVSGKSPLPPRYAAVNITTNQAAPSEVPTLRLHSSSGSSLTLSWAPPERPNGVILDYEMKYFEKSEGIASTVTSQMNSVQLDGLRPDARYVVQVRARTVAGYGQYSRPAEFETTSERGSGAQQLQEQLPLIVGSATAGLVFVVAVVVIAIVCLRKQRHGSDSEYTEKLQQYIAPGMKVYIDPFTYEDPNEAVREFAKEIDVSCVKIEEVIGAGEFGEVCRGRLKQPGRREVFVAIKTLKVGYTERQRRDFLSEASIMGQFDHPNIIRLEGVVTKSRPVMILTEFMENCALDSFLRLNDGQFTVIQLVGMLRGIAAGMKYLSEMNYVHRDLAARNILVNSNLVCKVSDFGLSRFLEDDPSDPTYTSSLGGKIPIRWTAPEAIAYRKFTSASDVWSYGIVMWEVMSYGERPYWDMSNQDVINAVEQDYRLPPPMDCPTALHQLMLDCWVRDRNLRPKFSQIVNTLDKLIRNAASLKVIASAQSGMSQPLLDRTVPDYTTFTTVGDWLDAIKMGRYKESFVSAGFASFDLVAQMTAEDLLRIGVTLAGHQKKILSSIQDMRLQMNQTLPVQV
Sequence of UniProt Q9HCP0 (whole entry, looked up): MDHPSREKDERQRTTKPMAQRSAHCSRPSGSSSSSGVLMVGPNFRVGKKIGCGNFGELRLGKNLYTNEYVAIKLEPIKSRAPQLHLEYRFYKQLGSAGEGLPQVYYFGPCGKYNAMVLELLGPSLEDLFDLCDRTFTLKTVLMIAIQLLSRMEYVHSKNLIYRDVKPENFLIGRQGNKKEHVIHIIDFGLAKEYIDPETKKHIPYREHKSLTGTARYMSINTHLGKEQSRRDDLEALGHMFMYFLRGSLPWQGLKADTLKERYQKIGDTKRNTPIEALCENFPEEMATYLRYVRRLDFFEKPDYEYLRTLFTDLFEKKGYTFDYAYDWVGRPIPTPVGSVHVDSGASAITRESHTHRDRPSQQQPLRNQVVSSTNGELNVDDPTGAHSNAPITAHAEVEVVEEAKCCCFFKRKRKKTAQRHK

Sample 1 — observed: enzyme activity; mode: inhibitor; tested at: 0.5 µM; baseline: control
Target: Serine/threonine-protein kinase BRSK1 (BRSK1, Homo sapiens, UniProt Q8TDC3)
Residues (Q8TDC3 1-778): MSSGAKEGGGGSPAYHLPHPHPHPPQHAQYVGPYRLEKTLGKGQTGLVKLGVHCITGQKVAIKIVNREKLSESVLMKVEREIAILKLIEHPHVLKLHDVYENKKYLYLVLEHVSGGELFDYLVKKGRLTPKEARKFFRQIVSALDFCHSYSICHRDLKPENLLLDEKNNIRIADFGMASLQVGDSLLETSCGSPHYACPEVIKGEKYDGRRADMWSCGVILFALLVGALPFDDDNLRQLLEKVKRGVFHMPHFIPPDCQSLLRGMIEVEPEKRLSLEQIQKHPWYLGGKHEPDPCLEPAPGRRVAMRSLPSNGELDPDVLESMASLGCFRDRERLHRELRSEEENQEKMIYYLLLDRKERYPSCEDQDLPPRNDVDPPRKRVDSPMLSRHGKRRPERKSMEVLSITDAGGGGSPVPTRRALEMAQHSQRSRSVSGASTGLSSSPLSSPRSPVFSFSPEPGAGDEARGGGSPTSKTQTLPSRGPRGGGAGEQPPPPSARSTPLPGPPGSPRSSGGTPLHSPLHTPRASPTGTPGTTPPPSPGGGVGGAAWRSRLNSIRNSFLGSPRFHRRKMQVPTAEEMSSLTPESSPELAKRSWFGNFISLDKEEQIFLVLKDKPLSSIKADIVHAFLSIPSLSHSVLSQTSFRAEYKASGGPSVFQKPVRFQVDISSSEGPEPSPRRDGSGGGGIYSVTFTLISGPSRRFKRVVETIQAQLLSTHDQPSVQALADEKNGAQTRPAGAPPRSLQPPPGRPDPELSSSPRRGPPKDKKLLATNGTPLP
`Cc1ccc(Nc2nccc(N(C)c3ccc4c(C)n(C)nc4c3)n2)cc1S(N)(=O)=O` gave a remaining activity of 97.2%.
For `CNC(=O)c1cc(Oc2ccc(NC(=O)Nc3ccc(Cl)c(C(F)(F)F)c3)cc2)ccn1`, the remaining activity was 95.8%.
`O=c1c2ccccc2[nH]c(=S)n1CCN1CCC(=C(c2ccc(F)cc2)c2ccc(F)cc2)CC1` has a remaining activity of 98.3%.
For `COc1cc2ncnc(Nc3ccc(Oc4ccccc4)cc3)c2cc1OC`, the remaining activity was 98.7%.
With `NCCNc1ncc(C(N)=O)c(Nc2cccc(C(F)(F)F)c2)n1` the remaining activity was 101%.
`O=C1NC(=O)C(c2cn(CCCn3ccnc3)c3ccccc23)=C1Nc1ccccc1` has a remaining activity of 95.3%.
`N#CC(C#N)=C(N)/C(C#N)=C/c1ccc(O)cc1` gave a remaining activity of 99.2%.
The remaining activity of `Cn1sc(=O)n(Cc2ccccc2)c1=O` is reported as 102%.
`CN(C)c1ccc(C=C2C(=O)Nc3ccccc32)cc1` has a remaining activity of 99.6%.
`O=C(Nc1cccc(Nc2cc(Nc3cccc(C(F)(F)F)c3)ncn2)c1)C1CC1` gave a remaining activity of 101%.
The remaining activity of `Nc1ccc2ncnc(NCCc3ccc(Oc4ccccc4)cc3)c2c1` is reported as 101%.
For `Cc1cccc(-c2[nH]c(C(C)(C)C)nc2-c2ccc3c(c2)OCO3)n1`, the remaining activity was 101%.
With `CC(C)[C@H](CO)Nc1nc(Nc2cc(N)cc(Cl)c2)c2ncn(C(C)C)c2n1` the remaining activity was 93.1%.
The remaining activity of `Cc1nc(-c2ccccc2)c(-c2ccncc2)o1` is reported as 99.8%.
For `O=C(CCCc1ccc(-c2ccccc2F)cc1)Nc1ccc(O)cc1`, the remaining activity was 103%.

Sample 2 — target: CRIPT, C-terminal peptide; technique: DHFR complementation, deep sequencing; sample: yeast; baseline: wild type; reading: higher = weaker binding
Notes: single substitutions, model-inferred values
Starting sequence: ERBIN, PDZ domain 1 (human); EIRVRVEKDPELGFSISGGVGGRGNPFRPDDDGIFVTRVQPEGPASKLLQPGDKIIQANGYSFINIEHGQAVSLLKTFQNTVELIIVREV; partner TKNYKQTSV
Under “binding free energy change”, `K47M` is recorded as 0.0916 kcal/mol.
Under “binding free energy change”, `V20Q` is recorded as -0.0951 kcal/mol.
For `G33P`, “binding free energy change” read 0.854 kcal/mol.
`H68R` — result for “binding free energy change”: 1.51 kcal/mol.
Under “binding free energy change”, `H68C` is recorded as 1.55 kcal/mol.
For `G60V`, “binding free energy change” read 0.239 kcal/mol.
For `V82I`, “binding free energy change” read 1.2 kcal/mol.
For `P29S`, “binding free energy change” read 0.161 kcal/mol.

Sample 3 — technique: competition protein-binding microarray; form: double-stranded DNA, one strand shown; sample: in vitro; tested at: 2 µM; together with: Cbf1 competitor, 0.05 µM; reading: higher = stronger binding
Target: Phosphate system positive regulatory protein PHO4, full length, GST-tagged (PHO4, Saccharomyces cerevisiae, UniProt P07270, residues 1-312)
Notes: whole 60-bp probe, lowest competitor level
Target sequence (chain): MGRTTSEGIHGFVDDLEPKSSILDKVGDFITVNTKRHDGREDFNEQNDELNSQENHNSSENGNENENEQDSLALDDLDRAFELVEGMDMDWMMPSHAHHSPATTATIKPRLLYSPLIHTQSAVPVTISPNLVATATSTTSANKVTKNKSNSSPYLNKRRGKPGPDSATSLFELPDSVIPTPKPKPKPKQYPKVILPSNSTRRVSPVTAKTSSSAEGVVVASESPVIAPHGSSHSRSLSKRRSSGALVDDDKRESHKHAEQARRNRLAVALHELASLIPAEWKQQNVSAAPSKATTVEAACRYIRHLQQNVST
With `TGCAAGGGTTATGGGCATGCGCATCTATGTGGCGTTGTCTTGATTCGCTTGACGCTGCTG` the fluorescence intensity was 9180 a.u.
`AAAGCGGTAATTTTTCACGTGCCGTCAAATATCTATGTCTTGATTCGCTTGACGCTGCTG` has a fluorescence intensity of 13300 a.u.
`TCGACGGCGAAGAAGCACATGCCTTCACCGTCCGCAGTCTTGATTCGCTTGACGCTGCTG` has a fluorescence intensity of 9510 a.u.
With `GTCCCATTCAATGAGCACATGCCTTGTGTAGTTTTGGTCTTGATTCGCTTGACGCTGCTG` the fluorescence intensity was 13600 a.u.
For `CTAACGAAGGTTTGTCACCGTACTTACAAGCCAAGTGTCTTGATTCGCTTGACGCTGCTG`, the fluorescence intensity was 3120 a.u.
`CATACCCAACCTTGCCGAGTGGGTGAAGATATTTGTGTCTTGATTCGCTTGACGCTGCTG` gave a fluorescence intensity of 4680 a.u.
With `AGACGAGGCAAAAGACACATGGTCGGCCCGTAACCAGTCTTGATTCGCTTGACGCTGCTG` the fluorescence intensity was 9320 a.u.
With `TAAAAATAACACCATCACGTATTTTAACGAATCAGAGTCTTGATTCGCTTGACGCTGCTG` the fluorescence intensity was 5170 a.u.

Sample 4 — observed: cell-free assay; technique: competition with immobilised ligand; tested at: 1 µM
Structure (SMILES): O=C1CCc2cc(Nc3cc(OC4CCOCC4)c([N+](=O)[O-])cc3Cl)ccc2N1
The remaining binding was 91% (MAP4K3 (Homo sapiens, UniProt Q8IVH8)).
It gave 100% for remaining binding (MAPK4 (Homo sapiens, UniProt P31152)).
MAP4K1 (Homo sapiens, UniProt Q92918) — remaining binding: 100%.
It gave 99% for remaining binding (Tyrosine-protein kinase ABL1, non-phosphorylated (ABL1, Homo sapiens, UniProt P00519, T315I)).
LIM domain kinase 1 (LIMK1, Homo sapiens, UniProt P53667) — remaining binding: 100%.
The remaining binding was 100% (MAPK6 (Homo sapiens, UniProt Q16659)).
The remaining binding was 100% (SRPK3 (Homo sapiens, UniProt Q9UPE1)).
It gave 100% for remaining binding (BRAF (Homo sapiens, UniProt P15056)).
For MAP3K7 (Homo sapiens, UniProt O43318): remaining binding read 95%.
For IGF1R (Homo sapiens, UniProt P08069): remaining binding read 86%.
It gave 84% for remaining binding (MAP3K5 (Homo sapiens, UniProt Q99683)).
The remaining binding was 97% (CSNK1G1 (Homo sapiens, UniProt Q9HCP0)).
EPHB3 (Homo sapiens, UniProt P54753) — remaining binding: 88%.
For FLT3 (Homo sapiens, UniProt P36888, R834Q): remaining binding read 87%.
For PAK5 (Homo sapiens, UniProt Q9P286): remaining binding read 100%.
For MAPK3 (Homo sapiens, UniProt P27361): remaining binding read 78%.

Repeated from above (sample 4):
The remaining binding was 91% (MAP4K3 (Homo sapiens, UniProt Q8IVH8)).
For IGF1R (Homo sapiens, UniProt P08069): remaining binding read 86%.
The remaining binding was 100% (SRPK3 (Homo sapiens, UniProt Q9UPE1)).
It gave 84% for remaining binding (MAP3K5 (Homo sapiens, UniProt Q99683)).
It gave 99% for remaining binding (Tyrosine-protein kinase ABL1, non-phosphorylated (ABL1, Homo sapiens, UniProt P00519, T315I)).
For PAK5 (Homo sapiens, UniProt Q9P286): remaining binding read 100%.
The remaining binding was 97% (CSNK1G1 (Homo sapiens, UniProt Q9HCP0)).
It gave 100% for remaining binding (MAPK4 (Homo sapiens, UniProt P31152)).
